Published values of several laboratories.
Protocols differ between the studies behind these lines. ± gives the spread as reported. No end group written: not given here. *: point of attachment.
B1: enzyme (Bacillus pumilus, UniProt A8FFI9); chain EARSIAWSVDEFFKNREGTFVIQEVKEKSPWVYNKKRAKERFAPQSTFKVANALIGLQTGAVRDEYDIKYWDGVKREIDNWNRDHTLGSGMRDSVVWYYQAMARDIGEERMNHWVKAIHYGNKDISGGIDQFWLSSTLRISPIEQVRFLKQLYEETLPFDLKNMRTVKRMMVQEEEKHATLYGKTGSGSDIGWYVGFIKHEHKTYILATNIKGTGIEAKDITYRILKKYHLMEASV
Chain of UniProt O60656 (whole entry, looked up): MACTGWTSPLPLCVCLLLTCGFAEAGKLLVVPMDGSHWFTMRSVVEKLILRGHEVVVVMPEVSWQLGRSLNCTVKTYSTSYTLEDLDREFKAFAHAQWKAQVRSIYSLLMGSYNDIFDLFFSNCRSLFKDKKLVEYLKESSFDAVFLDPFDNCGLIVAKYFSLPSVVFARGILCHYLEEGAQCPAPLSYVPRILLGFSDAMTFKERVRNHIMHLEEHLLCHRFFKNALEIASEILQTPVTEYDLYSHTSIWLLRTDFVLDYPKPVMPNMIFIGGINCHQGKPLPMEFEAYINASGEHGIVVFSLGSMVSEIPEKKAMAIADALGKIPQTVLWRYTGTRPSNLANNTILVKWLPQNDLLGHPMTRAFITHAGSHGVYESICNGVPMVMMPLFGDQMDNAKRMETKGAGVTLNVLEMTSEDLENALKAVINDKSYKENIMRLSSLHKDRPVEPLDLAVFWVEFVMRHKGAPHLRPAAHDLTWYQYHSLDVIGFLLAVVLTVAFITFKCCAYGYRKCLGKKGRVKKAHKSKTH
Chain of UniProt P08473 (whole entry, looked up): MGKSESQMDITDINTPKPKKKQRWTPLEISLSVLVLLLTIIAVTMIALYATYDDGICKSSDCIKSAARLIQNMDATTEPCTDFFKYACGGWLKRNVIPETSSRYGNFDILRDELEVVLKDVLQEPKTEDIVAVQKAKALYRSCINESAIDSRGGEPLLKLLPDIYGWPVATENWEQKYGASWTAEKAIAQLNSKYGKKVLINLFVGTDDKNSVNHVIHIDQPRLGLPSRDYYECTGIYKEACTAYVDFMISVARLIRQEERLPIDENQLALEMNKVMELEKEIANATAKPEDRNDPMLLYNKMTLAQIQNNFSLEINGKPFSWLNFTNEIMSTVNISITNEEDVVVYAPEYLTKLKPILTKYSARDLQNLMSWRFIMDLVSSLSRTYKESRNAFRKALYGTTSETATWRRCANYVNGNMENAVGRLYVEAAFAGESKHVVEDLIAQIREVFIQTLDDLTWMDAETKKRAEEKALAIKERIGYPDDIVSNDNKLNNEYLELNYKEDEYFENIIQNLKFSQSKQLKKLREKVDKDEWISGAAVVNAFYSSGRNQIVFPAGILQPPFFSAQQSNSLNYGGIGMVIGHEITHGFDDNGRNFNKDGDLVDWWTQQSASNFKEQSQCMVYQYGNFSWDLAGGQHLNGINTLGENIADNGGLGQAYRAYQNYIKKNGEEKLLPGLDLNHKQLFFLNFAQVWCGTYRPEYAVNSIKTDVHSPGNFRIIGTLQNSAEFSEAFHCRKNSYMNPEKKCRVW

`insulin human` gave a half-life of 8.4 min (Chymotrypsinogen A (Bos taurus, UniProt P00766); proteolytic degradation, RP-HPLC; 15 µM, pH 7.4, 37 °C).
For `B1 (enzyme)`, the kcat was 19 ± 1 s⁻¹ (Cc1onc(-c2ccccc2)c1C(=O)N[C@@H]1C(=O)N2[C@@H]1SC(C)(C)[C@@H]2C(=O)O; steady-state kinetics; pH 7).
`Neuropeptide Y`: remaining compound “decreased” (Neprilysin (MME, Homo sapiens, UniProt P08473); LC-MS; 10 µM, 1 h, pH 7.4, BSA 0.1%, together with: neprilysin 10 ng/mL).
`epidermal growth factor` has an intact fraction of 78% (MDCK; size-exclusion chromatography; 2 h, 37 °C, transcytosed basal to apical).
With CC(C)[C@H](NC(=O)[C@@H]1CCCN1C(=O)[C@H](CCCNC(=N)N)NC(=O)[C@H](CS)NC(=O)[C@H](Cc1c[nH]c2ccccc12)NC(=O)[C@H](CCCNC(=N)N)NC(=O)[C@@H](Cc1ccccc1)NC(=O)[C@H](Cc1c[nH]cn1)NC(=O)[C@H](CCC(=O)O)NC(=O)[C@H](CS)NC(=O)[C@H](CS)NC(=O)[C@H](CCCCN)NC(=O)[C@@H]1CC(=O)N[C@@H](CCCNC(=N)N)C(=O)N[C@@H](C)C(=O)N[C@@H](CC(=O)O)C(=O)N[C@H](Cc2ccc(O)cc2)C(=O)N1)C(N)=O [technetium-99m labelled] the tissue uptake was 0.14 ± 0.03 %ID/g (C57 mice, brain; intravenous, 0.037 MBq, 0.5 h).
CCSSC[C@@H](NC(=O)[C@H](CC(=O)O)NC(=O)[C@@H](NC(=O)[C@H](CCC(=O)O)NC(=O)[C@H](CC(=O)O)NC(C)=O)C(C)C)C(=O)N[C@@H](CCCCNC(=O)CCCCCN1C(=CC=CC=CC2=[N+](CC)c3ccc4c(S(=O)(=O)[O-])cc(S(=O)(=O)O)cc4c3C2(C)C)C(C)(C)c2c1ccc1c(S(=O)(=O)O)cc(S(=O)(=O)O)cc21)C(=O)Nc1ccc2nc(C3=N[C@@H](C(=O)NCCCOc4ccc5nc(C#N)ccc5c4)CS3)sc2c1 — result for “half-life of macrocyclization”: under 1 h (Caspase-3 (CASP3, Homo sapiens, UniProt P42574); substrate, HPLC; concentration not given, pH 7.4, 37 °C).
For `UGT1A9 (Homo sapiens, UniProt O60656)`, the Km was 1.62 µM (O=C(/C=C/c1ccc(O)cc1)c1ccccc1; steady-state kinetics; pH 7.4, 37 °C).
Under “compound share in basal compartment”, `GSS(Octanoyl)FLSPEHQRVQQRKESKKPPAKLQPR (ghrelin; Octanoyl = CCCCCCCC(=O)*; sequence looked up)` is recorded as 0% (Calu-3 monolayer, air-liquid interface; peptide; 1 mg/mL apical, 3 h, pH 7.4, 37 °C, with or without HTCC).
For `IscU`, the Vmax was 0.257 min⁻¹ (HscA wild type Escherichia coli; ATPase activity, activator; 50-fold molar excess, pH 7.3, 25 °C, together with: ATP 1 mM).
`GRKKRRQRRRAHQ (Rhodamine-HIV Tat(48–60); also: rhodamine label, place not given here; sequence looked up)` — result for “cytosolic delivery efficiency”: 2% (HeLa; FCS; peptide; 500 nM, 30 min, 37 °C).
`recombinant interleukin-13`: “fibrillar amyloid beta degradation” “no effect” (human monocyte-derived macrophages; 10 ng/mL, 120 h; baseline: untreated).

A few entries again:
For `B1 (enzyme)`, the kcat was 19 ± 1 s⁻¹ (Cc1onc(-c2ccccc2)c1C(=O)N[C@@H]1C(=O)N2[C@@H]1SC(C)(C)[C@@H]2C(=O)O; steady-state kinetics; pH 7).
